# Measured values of several laboratories.
# Each line is one published result; not all experiments were run side by side. Numbers after ± are the reported error.
SMILES,test system,setting,tissue uptake
CSCC[C@H](NC(=O)[C@H](CC(C)C)NC(=O)[C@H](Cc1c[nH]cn1)NC(=O)CNC(=O)[C@@H](NC(=O)[C@H](C)NC(=O)[C@H](Cc1c[nH]c2ccccc12)NC(=O)[C@H](CCC(N)=O)NC(=O)CCOCCOCCOCCOCCNC(=O)CN1CCN(CC(=O)O)CCN(CC(=O)O)CCN(CC(=O)O)CC1)C(C)C)C(N)=O [indium-111 labelled],"Swiss nu/nu mouse, male, PC-3 tumour xenograft, pancreas","intravenous, 10 pmol, 24 h",14.5 ± 2.8 %ID/g
CC(C)[C@H](NC(=O)[C@@H]1CCCN1C(=O)[C@H](CCCNC(=N)N)NC(=O)[C@H](CS)NC(=O)[C@H](Cc1c[nH]c2ccccc12)NC(=O)[C@H](CCCNC(=N)N)NC(=O)[C@@H](Cc1ccccc1)NC(=O)[C@H](Cc1c[nH]cn1)NC(=O)[C@H](CCC(=O)O)NC(=O)[C@H](CS)NC(=O)[C@H](CS)NC(=O)[C@H](CCCCN)NC(=O)[C@@H]1CC(=O)N[C@@H](CCCNC(=N)N)C(=O)N[C@H](Cc2ccccc2)C(=O)N[C@@H](CC(=O)O)C(=O)N[C@H](Cc2ccc(O)cc2)C(=O)N1)C(N)=O [technetium-99m labelled],"C57 mouse, female, intestine","intravenous, 0.037 MBq, 4 h",3.18 ± 1.08 %ID
N=C(N)NCCC[C@@H]1NC(=O)[C@H](CCCCNC(=O)CCOCCOCCOCCOCCNC(=O)CC[C@H](NC(=O)CCOCCOCCOCCOCCNC(=O)CN2CCN(CC(=O)O)CCN(CC(=O)O)CCN(CC(=O)O)CC2)C(=O)NCCOCCOCCOCCOCCC(=O)NCCCC[C@@H]2NC(=O)[C@@H](Cc3ccccc3)NC(=O)[C@H](CC(=O)O)NC(=O)CNC(=O)[C@H](CCCNC(=N)N)NC2=O)NC(=O)[C@@H](Cc2ccccc2)NC(=O)[C@H](CC(=O)O)NC(=O)CNC1=O [copper-64 labelled],"athymic nu/nu mouse, female, liver","intravenous, 1 h",2.25 ± 0.26 %ID/g
CCCC[C@H](NC(=O)CNC(=O)CNC(=O)CN1CCN(CC(=O)O)CCN(CC(=O)O)CCN(CC(=O)O)CC1)C(=O)N[C@H]1CC(=O)NCCCC[C@@H](C(N)=O)NC(=O)[C@H](Cc2c[nH]c3ccccc23)NC(=O)[C@H](CCCNC(=N)N)NC(=O)[C@@H](Cc2ccccc2)NC(=O)[C@H](Cc2c[nH]cn2)NC1=O [lutetium-177 labelled],"C57 mouse, female, brain","intravenous, 0.037 MBq, 24 h",0.02 ± 0.02 %ID/g
Cc1cc(O)cc(C)c1C[C@H](NC(=O)[C@@H]1CCCN1C(=O)[C@H](CCCNC(=N)N)NC(=O)[C@H](CCCNC(=N)N)N(C)C(=O)[C@@H]1CCCN1C(=O)[C@@H](CC(C)C)NC(=O)[C@@H](CC(C)C)NC(=O)[C@H](CCCCN)NC(=O)[C@@H](CC(C)C)NC(=O)[C@@H](CC(C)C)NC(=O)CN1CCN(CC(=O)O)CCN(CC(=O)O)CCN(CC(=O)O)CC1)C(=O)N[C@H](C(=O)N[C@@H](CC(C)C)C(=O)O)C(C)(C)C [lutetium-177 labelled],"CF-1 mouse, small intestine","iv, 370 kBq, 1 h",4.25 ± 0.75 %ID/g
CCCC[C@H](NC(=O)COCCOCCNC(=O)CN1CCN(CC(=O)O)CCN(CC(=O)O)CC1)C(=O)N[C@H]1CC(=O)NCCCC[C@@H](C(N)=O)NC(=O)[C@H](Cc2c[nH]c3ccccc23)NC(=O)[C@H](CCCNC(=N)N)NC(=O)[C@@H](Cc2ccccc2)NC(=O)[C@H](Cc2c[nH]cn2)NC1=O [copper-64 labelled],"C57 mouse, normal organs except kidneys","intravenous, 0.37 MBq, 2 h",< 2 %ID/g
Cc1cc(O)cc(C)c1C[C@H](NC(=O)[C@@H]1CCCN1C(=O)[C@H](CCCNC(=N)N)NC(=O)[C@H](CCCNC(=N)N)N(C)C(=O)[C@@H]1CCCN1C(=O)[C@H](CCCCN)NC(=O)[C@@H](CC(C)C)NC(=O)[C@@H](CC(C)C)NC(=O)[C@@H](CC(C)C)NC(=O)[C@@H](CC(C)C)NC(=O)CN1CCN(CC(=O)O)CCN(CC(=O)O)CCN(CC(=O)O)CC1)C(=O)N[C@H](C(=O)N[C@@H](CC(C)C)C(=O)O)C(C)(C)C [lutetium-177 labelled],"CF-1 mouse, lung","iv, 370 kBq, 1 h",5.08 ± 1.31 %ID/g
N=C(N)NCCC[C@@H]1NC(=O)[C@H](CCCCNC(=O)CNC(=O)CNC(=O)CNC(=O)CC[C@H](NC(=O)CNC(=O)CNC(=O)CNC(=O)CN2CCN(CC(=O)O)CCN(CC(=O)O)CCN(CC(=O)O)CC2)C(=O)NCC(=O)NCC(=O)NCC(=O)NCCCC[C@@H]2NC(=O)[C@@H](Cc3ccccc3)NC(=O)[C@H](CC(=O)O)NC(=O)CNC(=O)[C@H](CCCNC(=N)N)NC2=O)NC(=O)[C@@H](Cc2ccccc2)NC(=O)[C@H](CC(=O)O)NC(=O)CNC1=O [copper-64 labelled],"athymic nude mouse, female, whole blood","iv, 4 h",0.46 ± 0.15 %ID/g
CC(C)C[C@H](NC(=O)CN1CCN(CC(=O)O)CCN(CC(=O)O)CC1)C(=O)N[C@@H](CC(C)C)C(=O)N[C@@H](CC(C)C)C(=O)N[C@@H](CC(C)C)C(=O)N[C@@H](CCCNC(=N)N)C(=O)N[C@H](C(=O)N[C@@H](CCCCN)C(=O)N[C@@H](CCCNC(=N)N)C(N)=O)C(C)C [copper-64 labelled],"CD1 mouse, male, liver","intravenous, 15 min, blocked, unlabelled peptide 0.1 µmol",7 ± 1 %ID/g
Cc1cc(O)cc(C)c1C[C@H](NC(=O)[C@@H]1CCCN1C(=O)[C@H](CCCNC(=N)N)NC(=O)[C@H](CCCNC(=N)N)N(C)C(=O)[C@@H]1CCCN1C(=O)[C@@H](CC(C)C)NC(=O)[C@@H](CC(C)C)NC(=O)[C@@H](CC(C)C)NC(=O)[C@@H](CC(C)C)NC(=O)[C@H](CCCCN)NC(=O)CN1CCN(CC(=O)O)CCN(CC(=O)O)CCN(CC(=O)O)CC1)C(=O)N[C@H](C(=O)N[C@@H](CC(C)C)C(=O)O)C(C)(C)C [lutetium-177 labelled],"CF-1 mouse, kidney","iv, 370 kBq, 1 h",128 ± 13.1 %ID/g

# Excerpt of the above:
SMILES,test system,setting,tissue uptake
N=C(N)NCCC[C@@H]1NC(=O)[C@H](CCCCNC(=O)CNC(=O)CNC(=O)CNC(=O)CC[C@H](NC(=O)CNC(=O)CNC(=O)CNC(=O)CN2CCN(CC(=O)O)CCN(CC(=O)O)CCN(CC(=O)O)CC2)C(=O)NCC(=O)NCC(=O)NCC(=O)NCCCC[C@@H]2NC(=O)[C@@H](Cc3ccccc3)NC(=O)[C@H](CC(=O)O)NC(=O)CNC(=O)[C@H](CCCNC(=N)N)NC2=O)NC(=O)[C@@H](Cc2ccccc2)NC(=O)[C@H](CC(=O)O)NC(=O)CNC1=O [copper-64 labelled],"athymic nude mouse, female, whole blood","iv, 4 h",0.46 ± 0.15 %ID/g
